Experimental data from different studies.
Numbered parts are unrelated; each lists some results of a single study.

Study 1
Molecule: VLLKRLQDVVSERANH
Technique: competitive growth deep sequencing
Form: peptide
Tested at: concentration not given
Direction: direction not given
The “growth enrichment score” was 4.53 (Saccharomyces cerevisiae; binding; cyclin D3-Cln2 fusion strain; peptide tiling library).
The “growth enrichment score” was 0.181 (yeast with cyclin E2-Cln2 chimera; cell growth, binder; peptide tiling library).
It gave -0.0577 for “growth enrichment score” (yeast with cyclin B3-Cln2 chimera; cell growth, binder; peptide tiling library).
Saccharomyces cerevisiae; binding; cyclin E1-Cln2 fusion strain; peptide tiling library — “growth enrichment score”: -0.0662.
Saccharomyces cerevisiae; binding; cyclin E1-Cln2 fusion strain; tiling library, Cln2 subtracted — “growth enrichment score”: -0.0662.
yeast with cyclin D2-Cln2 chimera; cell growth, binder; peptide tiling library — “growth enrichment score”: 3.48.
The “growth enrichment score” was 0.301 (yeast with cyclin F-Cln2 chimera; cell growth, binder; peptide tiling library).
The “growth enrichment score” was 4.53 (Saccharomyces cerevisiae; binding; cyclin D3-Cln2 fusion strain; tiling library, Cln2 subtracted).
It gave 0.501 for “growth enrichment score” (yeast with cyclin A1-Cln2 chimera; cell growth, binder; peptide tiling library).

Study 2
Target: RING finger protein unkempt homolog, zinc fingers 1-6, GST-SBP tag (UNK, Homo sapiens, UniProt Q9C0B0, residues 30-357)
UniProt Q9C0B0, sequence (30-357, looked up): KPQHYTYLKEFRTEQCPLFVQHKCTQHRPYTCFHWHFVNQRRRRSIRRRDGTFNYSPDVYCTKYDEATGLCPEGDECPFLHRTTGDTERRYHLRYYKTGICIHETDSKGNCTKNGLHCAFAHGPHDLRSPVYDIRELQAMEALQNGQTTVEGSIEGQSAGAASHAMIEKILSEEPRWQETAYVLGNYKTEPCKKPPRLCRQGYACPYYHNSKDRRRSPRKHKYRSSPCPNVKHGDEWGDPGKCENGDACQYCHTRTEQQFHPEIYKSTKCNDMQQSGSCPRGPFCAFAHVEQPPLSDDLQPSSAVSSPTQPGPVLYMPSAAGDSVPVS
Technique: RNA Bind-n-Seq
Form: RNA
Medium: in vitro
Tested at: not given
Setting: RNA with constant flanks, human and mouse sites, ends assumed
Relative to: input RNA pool
Direction: higher = stronger binding
The bound/input enrichment of `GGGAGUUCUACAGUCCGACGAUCAUCCCAAACCAGCUGUGUAAAUGAGUAUGGAAGAUUAUGAUUUCCUGUUCAAAAUUGUUUUAAUUGGCAACGCUGGAGUGGGAAAGACGUGCCUAGUCCGAAGAUUCACUCAGGGUCUUUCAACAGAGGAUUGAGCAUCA` is reported as 0.149 ratio.
`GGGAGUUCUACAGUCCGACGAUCCAGAAGUAUGUUGGUGGGAAUCAACCUGAUCCUGGCCCUUUCUUCUUCUCCAUUUUCAUUCGUAAUCCCCCUCAGCAGAUCUUUACAAGCAGUUUCCUUAUAGCUCAUGUAUCUUUAGGUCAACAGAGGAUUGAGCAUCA` has a bound/input enrichment of 0.444 ratio.
The bound/input enrichment of `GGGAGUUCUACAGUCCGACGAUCUAACAGUGUGUUAAACUACUUUAUUGCUACAUUUAAAGGACUGUAUUUUCAUACUUUUUGCAUUUUACCUAUCAUCUACCAGUUUCCAUGUGCAUUGGGUUGCACACUAAGAUGUAUUUUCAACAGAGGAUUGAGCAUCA` is reported as 0.301 ratio.
For `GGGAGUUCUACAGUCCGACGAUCUCUGUUCGGAACCCCAGAGCACGAGUAGUAGUCUUAAGAGUAAAGCUUUCCAGUUUGAAUUUAGAUGAUCACGCAAAGAAGAAAUUAAUUAAACUUGUAGGAGAGCGAUACUGCAAGACCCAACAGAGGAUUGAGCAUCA`, the bound/input enrichment was 0.913 ratio.
The bound/input enrichment of `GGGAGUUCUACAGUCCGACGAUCCAUUAAUUUCAACACAUGGGAACACAUGUACAGAAGAUUUUUUUUUUUUUUUUUUUUUUUUUUAGCUACUCGAGAACUUUUCAUAGAUGAACUUUUUAACAAAUGUUUUCAUUUACAGGACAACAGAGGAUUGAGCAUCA` is reported as 6.49 ratio.
For `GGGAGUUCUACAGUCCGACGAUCCAUGACUUAAAUAAUUCUGAAAGAGUUCAGAAAAUGAAAAACUCACAGAAACCUCAGAAGAUAGAUUCAGAAAUAAGUCCCAAGAAGGAUAAUGAAGAAUUUCUACAAAAUAAAAAAAAGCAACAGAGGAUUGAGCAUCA`, the bound/input enrichment was 0.345 ratio.
With `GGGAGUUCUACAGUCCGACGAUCUGUUGGGGGUGGGUAUAAAAGAUGGGGUCUGUAAAAUCUUUUUUUCUUAGAAAUUCAUUUACUAGUUAUGUAGAAAUGGUUGUAUUAGAUGUUCUCUAUCAUUUAAUAAUAUACUUGUGGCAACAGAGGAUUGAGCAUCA` the bound/input enrichment was 16.3 ratio.
The bound/input enrichment of `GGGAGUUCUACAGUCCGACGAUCCAUGGUGGAAAGAGAAAAUGGACUUGCUUUAUCUGUGGAAAAUCAGUACGAGAAAGAACUACUUUGAAAGAACAUUUGAGAAUCCACAGUGGAGAAAAGCCUCACCUUUGUAGUAUUUGUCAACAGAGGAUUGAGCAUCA` is reported as 0.206 ratio.
`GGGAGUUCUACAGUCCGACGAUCCUGAAUCAUUUUGUUUGUUAUCUGUCUGUCUCUCUGUCUGUCUGUUUGUAUUUUGAGUUAUGUGAAUAUAAGGGUAGGUAUGUGCAGCUGAGGGAAGUUGUCUGGAGAGGACAGAAAGAGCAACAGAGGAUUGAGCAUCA` gave a bound/input enrichment of 0.344 ratio.
For `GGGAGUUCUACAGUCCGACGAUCGUAAAGCAUCCCUUCAUCGUGGAUUUAAUUUAUGCCUUUCAGACUGGUGGAAAACUCUACCUCAUCCUUGAGUAUCUCAGUGGAGGAGAACUAUUUAUGCAGUUAGAAAGAGAGGGAAUACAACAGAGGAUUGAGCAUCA`, the bound/input enrichment was 0.231 ratio.
`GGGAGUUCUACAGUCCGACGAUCCCCUGACAGAGCACUACAGCAUCAAAGUAAAUCUUUGGGGACAGUGUAGCCCAUCUGCAUCCUAUUUAAUUUCUUCCCUUCUCCCCACCAGUGUUGUCACAGGGCUAUGUUGCUUAAAGGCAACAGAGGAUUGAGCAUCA` has a bound/input enrichment of 0.735 ratio.

Study 3
Target: Centromere-binding protein 1, full length, His-tagged (CBF1, Saccharomyces cerevisiae, UniProt P17106, residues 1-351)
UniProt P17106, sequence (whole entry, looked up): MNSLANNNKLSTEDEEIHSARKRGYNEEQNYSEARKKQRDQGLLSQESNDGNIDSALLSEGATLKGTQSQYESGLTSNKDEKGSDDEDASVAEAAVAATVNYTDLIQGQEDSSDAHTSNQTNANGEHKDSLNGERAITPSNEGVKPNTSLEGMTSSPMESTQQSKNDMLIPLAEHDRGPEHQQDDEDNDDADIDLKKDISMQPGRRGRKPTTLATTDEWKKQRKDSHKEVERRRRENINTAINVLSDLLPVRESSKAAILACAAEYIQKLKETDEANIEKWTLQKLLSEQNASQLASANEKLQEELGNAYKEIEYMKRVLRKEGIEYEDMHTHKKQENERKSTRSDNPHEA
Technique: competition protein-binding microarray
Form: double-stranded DNA, one strand shown
Medium: in vitro
Tested at: 2 µM
Setting: whole 60-bp probe, lowest competitor level
Added: Pho4 competitor, 0.05 µM
Direction: higher = stronger binding
The fluorescence intensity of `TTTTTTTCCCAGAGACGCGTGGAAGCACCCATGGATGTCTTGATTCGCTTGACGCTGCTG` is reported as 62.2 a.u.
The fluorescence intensity of `CATACCCAACCTTGACCAGTGGGTGAAGATATTTGTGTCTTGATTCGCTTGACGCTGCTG` is reported as 58.6 a.u.
The fluorescence intensity of `GAAGTCTCCAAACTCCACGTGTTGGTATTTCTCGTAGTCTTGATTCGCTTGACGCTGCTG` is reported as 805 a.u.
For `CTTACCGTCAACTTTGACGTGACGGAGCATCAAGATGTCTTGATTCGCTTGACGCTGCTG`, the fluorescence intensity was 77.4 a.u.
For `ATTGGTGATATTGTTGACGTGCTTTACAAACGGAATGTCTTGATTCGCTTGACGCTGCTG`, the fluorescence intensity was 83 a.u.
`ATTTGGACAAGGTTCCACGTGAGTATGTTCGTTATTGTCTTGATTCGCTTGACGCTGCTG` gave a fluorescence intensity of 799 a.u.
`AAAGCGGTAATTTCTCACGTGTTTTCACATATCTATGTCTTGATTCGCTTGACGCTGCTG` has a fluorescence intensity of 1310 a.u.
For `CATACCCAACCTTGATCCGTGGGTGAAGATATTTGTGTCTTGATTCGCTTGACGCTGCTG`, the fluorescence intensity was 63.7 a.u.
The fluorescence intensity of `CTTTCCCGATCTTTTCACGTGGTTTTAGCACATTTGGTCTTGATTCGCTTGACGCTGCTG` is reported as 1330 a.u.
`TCAGCACCCTTTGGACTCGTGATGGCGTTGAAAGGTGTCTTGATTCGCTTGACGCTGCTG` has a fluorescence intensity of 192 a.u.
The fluorescence intensity of `CCGATAGTAAGGTTCGACGTGGTGAACCATCAACAAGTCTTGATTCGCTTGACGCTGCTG` is reported as 63.1 a.u.
`GTCCGATATGCCCGGAACGTGCTTTCCATTGGTGCAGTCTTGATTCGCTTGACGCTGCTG` gave a fluorescence intensity of 112 a.u.
With `ACCGCAATGGCGCTTCACGTGTTGGGTAACCACAACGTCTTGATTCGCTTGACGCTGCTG` the fluorescence intensity was 839 a.u.
With `GTCTTGTCTCATTGGCTCGTGGGTGTCCCCACTTCAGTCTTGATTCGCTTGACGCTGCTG` the fluorescence intensity was 82.2 a.u.
With `GGCCAAGTTGGTTAAGGCGTGCGATTGTTAATCGCAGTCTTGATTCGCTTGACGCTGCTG` the fluorescence intensity was 84.5 a.u.
The fluorescence intensity of `CAGATCGATTTGATATACGTGGTGAAGCAAAAAGCGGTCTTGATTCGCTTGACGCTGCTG` is reported as 70.8 a.u.

Study 4
Target: Protein C-ets-1 (ETS1, Homo sapiens, UniProt P14921, residues 1-441, Y397A, full length assumed)
Technique: protein-binding microarray
Form: double-stranded DNA, one strand shown
Medium: in vitro
Tested at: not given
Setting: k-mer, scored over probes, only values ≥0.25
Direction: higher = stronger binding
Construct (chain): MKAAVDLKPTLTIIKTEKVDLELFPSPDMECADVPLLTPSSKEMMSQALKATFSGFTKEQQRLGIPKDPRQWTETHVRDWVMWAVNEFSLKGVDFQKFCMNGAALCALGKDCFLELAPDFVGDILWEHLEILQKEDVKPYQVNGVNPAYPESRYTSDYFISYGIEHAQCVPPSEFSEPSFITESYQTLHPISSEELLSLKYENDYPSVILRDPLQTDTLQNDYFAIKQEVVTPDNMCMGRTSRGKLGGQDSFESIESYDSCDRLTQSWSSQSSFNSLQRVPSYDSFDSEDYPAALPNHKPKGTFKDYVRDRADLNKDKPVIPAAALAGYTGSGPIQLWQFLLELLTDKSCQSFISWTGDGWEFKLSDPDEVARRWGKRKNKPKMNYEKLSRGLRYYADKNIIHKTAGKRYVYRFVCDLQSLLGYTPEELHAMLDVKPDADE
The E-score of `TAATGACA` is reported as 0.371.
The E-score of `GCACATCC` is reported as 0.295.
With `GAATTTCC` the E-score was 0.272.
`CCAATTTA` has an E-score of 0.252.
For `CAACGTAC`, the E-score was 0.254.
The E-score of `GACCGGAA` is reported as 0.339.
`CAAATGTG` has an E-score of 0.269.
`ACAATGTC` gave an E-score of 0.262.
The E-score of `AGCGGAAG` is reported as 0.351.
With `TGGCACAA` the E-score was 0.268.
With `GTTGTCAA` the E-score was 0.286.
With `CGCATATC` the E-score was 0.279.
`ACAAACGA` has an E-score of 0.301.
The E-score of `TCGTGACA` is reported as 0.307.
The E-score of `ATTGCAAA` is reported as 0.269.
For `CACTGTCA`, the E-score was 0.311.
The E-score of `CATATGGG` is reported as 0.257.
The E-score of `GCACGTGC` is reported as 0.258.
For `CTGTCAAC`, the E-score was 0.29.

Study 5
Target: Histone acetyltransferase KAT6A, both winged helices, GST fusion (KAT6A, Homo sapiens, UniProt Q92794, residues 1-181)
Technique: protein binding microarray
Form: double-stranded DNA, one strand shown
Medium: in vitro
Tested at: not given
Setting: 8-mer, flanks averaged, mean of 2 arrays, mostly near background
Relative to: not given
Direction: higher = stronger binding
Construct (chain): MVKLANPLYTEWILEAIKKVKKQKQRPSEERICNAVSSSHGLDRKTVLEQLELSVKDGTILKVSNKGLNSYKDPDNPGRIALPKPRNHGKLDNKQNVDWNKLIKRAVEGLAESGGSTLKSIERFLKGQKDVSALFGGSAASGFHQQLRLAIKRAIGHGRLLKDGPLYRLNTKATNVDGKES
`CCCATCAC` has an E-score of -0.184.
`AGAAACCT` gave an E-score of -0.234.
With `CACAGTAA` the E-score was -0.0709.
With `ATTATGCC` the E-score was 0.00159.
`TGGTAGAA` gave an E-score of -0.0997.
For `CCATCATA`, the E-score was -0.221.
`AGGTCGAT` has an E-score of 0.0261.
With `GGCTCCAC` the E-score was -0.105.
`CTGGACAA` has an E-score of -0.135.
The E-score of `ATCTATGC` is reported as -0.0988.
The E-score of `CAACATAG` is reported as -0.0915.
The E-score of `GCGTACGA` is reported as 0.195.
With `ATGCATCA` the E-score was -0.0694.
The E-score of `CACATTTC` is reported as -0.0154.
With `CAAAAAGC` the E-score was 0.0639.
`GGACAACC` gave an E-score of -0.0383.
`ATATAAGC` gave an E-score of -0.0321.
With `CCGGGAAG` the E-score was 0.166.
`ATATTACA` has an E-score of -0.0381.
`AATCGACC` has an E-score of 0.0331.
For `CCCGTCGG`, the E-score was 0.377.
`AGAAATCG` gave an E-score of -0.146.
`AGGAACGC` has an E-score of 0.15.
With `CCCTCAGC` the E-score was -0.0632.
For `ACTATAAC`, the E-score was -0.065.
